Results from different studies.
A part holds a random share of what one study measured.

Block 1 — technique: RNA Bind-n-Seq; form: RNA; sample: in vitro; concentration: 365 nM; relative to: no-protein control; reading: higher = stronger binding
Target: RNA binding protein fox-1 homolog 2, RRM domain, GST-SBP tag (RBFOX2, Homo sapiens, UniProt O43251-10, residues 100-194)
Setting: natural RNA segment, single round, ends assumed
Constant ends, left off below: GGGAGUUCUACAGUCCGACGAUC … UGGAAUUCUCGGGUGCCAA
Target sequence (chain): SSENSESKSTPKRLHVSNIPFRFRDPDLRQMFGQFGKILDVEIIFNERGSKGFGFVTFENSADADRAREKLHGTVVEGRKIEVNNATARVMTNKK
Strand | RBNS enrichment (R)
GUAUAAGGUCCAGGCUGGUCCUUACUCUUCCUGGGACCAAAAGCACCCAGAGGCAUUAACAGGUCCCCAGACUAGGGCCUACACUGAGGGUAGAACCUGGAACCACAGUU | 0.251
ACUGCCCUUCCUAGUUGGUGGCUGCCAUGUUGGACUGUGGAUCUAAACACUUCUAGAGCUUUGUGGUCCAAACUCUGGCUCUCCCGUCUGCAAAACAGGAGCCAGCCUGG | 0.258
CUGAGUGUCCUCUCUUAACAUCCAAGCCUUUUAAUGAAAUCGUACUGAAAUCUGUAUCAGCUAAGAGUCCUCCAAUCCUGGUCCCAUUAACUCCAAGUGCCUUUUUGACA | 0.519
UAAAUCUAAAAUGAAUGACUUUCAAAAAUGGGUUGGUUACCAUGGCAACCUCCAGGAAGAGAUACUCGUUACCCUUCAUUAUUUUCUAGCACUUUUGAACAGUCCCACAG | 0.246
CUAGCCUUUUCUACACCCUCUUUUGAGUGUAGUUUGAUAUUUUGUAAUCAAAAGCUCAUUUCACAAGCAGAAAAAGGCGACAAGUUAAUUAAAGCAAGGAAAAGUGUCAC | 0.283
CUGCGGGCUCUCUCCCCGACACAUUUGUUAAAAUCAAACCUGAAUAAAACUACAAGUUUAAUAUGAAGCCCCCAACUCAGCUGCUUAUUUGAAUUAAAUGGGUGUAUUUG | 0.766
CAGGAAGACCAAGGCCUCGGCAGAACUCUCUGUCUUCUCUCCACUUCUGGUCCCCUGUGGUGAUGUGCCUGUAAUCUUUUUCUCCACCCAAACCCCUUCCCACGACAAAA | 3.78
UGAAGAUGGUUUAAGUUAUAGCUUCUUAAACGAAAGAAUAAAAUACUGCAAAAUGUUUUUAUAUUUGGCCCUUCCACCCAUUUUUAAUUGUGAGAGAUUUGUCACCAAUC | 0.632

Block 2 — technique: RNA Bind-n-Seq; form: RNA; sample: in vitro; concentration: 200 nM; setting: whole 134-nt RNA, ends assumed; added: 150 mM LiCl; relative to: input library; reading: higher = stronger binding; all molecules: 7-deaza-guanosine replaces G
Target: Fragile X messenger ribonucleoprotein 1, C-terminal low-complexity region (Fmr1, Mus musculus, UniProt P35922)
Constant ends, left off below: GGGAGUUCUACAGUCCGACGAUC … UGGAAUUCUCGGGUGUCAAGG
Strand | log2 enrichment
AAGUCCUGUGCUACACAUCGUAUGUACCGAAUCGGGUUUUGGUUUUGGGGUUUUGGGAAAGUAUUAUGUUACGCCGUUCGGAUCUGCACU | -1.49
AGUCCUGUGCUACACAUCGUAUGUACCGAAUCGGAAAAGGGGAAAAGGGGAAAAGGGAAAGUAUUAUGUUACGCCGUUCGGAUCUGCACU | -0.763
ACCAUGCAGGAAAGCAUCUUUGGGAAGUGGGGCAAGGGGGGGAUAGGGAGGGGGGUAACACUUUGGGAACAGGUGGUCCCAGGUCGUUUC | 1.18
CAAGUCCUGUGCUACACAUCGUAUGUACCGAAUCGGUUUUUUUGGUUUGGAAAGGAAAGUAUUAUGUUACGCCGUUCGGAUCUGCACUUC | -1.71
UUCUAUUUCUUUCCUUAAUGUUUUUUUCUUCCCUACUGUUUUAUCCUCCCUUUGCUUUGGAAGGAUAUUGCUGCAUAUCGAGCUAAAGGA | 0.156
GCAGGAAGUAAAAACAAAUGGAAAUGCUUCGGUUAGUGGCAGGGGUGGGGGUUGCUAAGGAAAGGGUGGGAUGGGAGUGGGUAAAGAGUU | 1.31
AAGUCCUGUGCUACACAUCGUAUGUACCGAAUCGGAAAAGGAAAAGGGGAAAAGGGGAAAGUAUUAUGUUACGCCGUUCGGAUCUGCACU | 0.398
UGUCCUGCAGGGUCGGACCGAUACCUGGAGAGCCGCGAUGCCUCUCGACUGAGUGGCCGGGACCCCUCCUCAUGGACAGUCGAGGAUGUG | -3.84

Block 3 — technique: competition protein-binding microarray; form: double-stranded DNA, one strand shown; sample: in vitro; concentration: 2 µM; added: Cbf1 competitor, 0.05 µM; reading: higher = stronger binding; constant ends, left off below: … GTCTTGATTCGCTTGACGCTGCTG
Target: Phosphate system positive regulatory protein PHO4, full length, GST-tagged (PHO4, Saccharomyces cerevisiae, UniProt P07270, residues 1-312)
Setting: whole 60-bp probe, lowest competitor level
Construct (chain): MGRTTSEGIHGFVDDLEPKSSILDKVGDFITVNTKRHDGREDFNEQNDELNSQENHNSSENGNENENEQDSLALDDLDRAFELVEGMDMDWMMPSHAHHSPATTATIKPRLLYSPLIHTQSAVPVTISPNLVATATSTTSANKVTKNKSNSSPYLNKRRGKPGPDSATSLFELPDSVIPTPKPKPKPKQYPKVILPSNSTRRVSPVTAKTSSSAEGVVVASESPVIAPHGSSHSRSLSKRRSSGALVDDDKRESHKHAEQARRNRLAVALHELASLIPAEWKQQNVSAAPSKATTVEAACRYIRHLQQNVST
Strand | fluorescence intensity [a.u.]
GGCCATCCGCTCCGTCACGGGCCAATCGAAGCTCTT | 5730
CGCTATTTTCGCCGTCACATGTCAATAAAAGCAGAT | 10600
TTTCAAAATCGTTTGCACGTGCTTTCGACTGCACTG | 18300
AGACTGAAAGTTTTGCATGATCAATTTCTCTCATTG | 3840
TGCGCAACAACTTGTCACATTACTTTATGTCTAGAA | 4060
CTTTCCCGATCTTGCCACGTGTTTTTAGCACATTTG | 17400
CAAACTGAGACCTTCCACGTTGTGGGCACCACCACT | 11100
TACTGTACCAATCACCACGTTTTGACTATGTGGACT | 14200
AATCGCGATCCCCATCACGTTCTTTAGCCTCATTAT | 12200
CTAACGAAGGTTTGATTAGTGGGTGACAAGCCAAGT | 3520
CTTTCCCGATCTTGCTGGGTGGGTGTAGCACATTTG | 4640
TGTCCCAATTCCCAGCTCGTGGAACCTGGTGTTTTA | 7800
TAAACAAGTCTCTTACACGTGAAGCACCTACCCCAA | 11800
CTGTGAGACCAGTTAAAGACCTCTCTCAAGAAAAAT | 3150
TTTATTGATTAACAAATAATCGAGACACACTATAGA | 4740
CGGGGTTAAGTTTGAGGCGTGGGTGGCTTGCAGCAG | 7800
TGTAAATTTTTGTATAATTTCATCATGGAGGTGCAT | 5220
CTAACGAAGGTTTGACCAGTGGGTGACAAGCCAAGT | 3800
GTCTTGTCTCATTGTCACGATACTTTCCCCACTTCA | 5350

Block 4 — technique: Spec-seq; form: double-stranded DNA, one strand shown; sample: in vitro; concentration: not given; setting: whole probe, mean of replicates; relative to: not given; reading: lower = stronger binding; constant ends, left off below: GAGTCGTCTCGTCAGCAC … CCGTAGAGCACTCAGGTC
Target: POU, POU domain (Salpingoeca helianthica)
Construct (chain): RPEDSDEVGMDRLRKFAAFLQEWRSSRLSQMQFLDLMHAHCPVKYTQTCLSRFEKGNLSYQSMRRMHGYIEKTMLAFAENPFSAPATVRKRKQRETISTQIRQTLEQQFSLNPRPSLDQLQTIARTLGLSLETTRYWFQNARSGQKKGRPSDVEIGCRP
Strand | relative binding energy
ATAAACAT | 0.361 ln ratio
ACGTTAAT | -0.0749 ln ratio
ATAGAGAT | 1.17 ln ratio
ATGCGCAG | 1.59 ln ratio
ATAGGGAT | 1.33 ln ratio
TTCATAAT | 0.401 ln ratio
AAATTAAT | -0.78 ln ratio
ATCACGAT | 1.2 ln ratio
ATGCAGAA | 1.18 ln ratio
TAACTAAT | -0.609 ln ratio
ATGCGTGG | 1.37 ln ratio
ATCAGGAT | 1.17 ln ratio
ATGCTGCA | 1.23 ln ratio
ATTAGGAT | 0.738 ln ratio
ATGCCGTT | 1.28 ln ratio
CATCTAAT | 0.356 ln ratio
ATAATAAT | -0.297 ln ratio
ATGCTTTC | 1.22 ln ratio
ATAAGTAT | 0.673 ln ratio
ATTCTGAT | 0.948 ln ratio

Excerpt of the above (block 1):
Strand | RBNS enrichment (R)
ACUGCCCUUCCUAGUUGGUGGCUGCCAUGUUGGACUGUGGAUCUAAACACUUCUAGAGCUUUGUGGUCCAAACUCUGGCUCUCCCGUCUGCAAAACAGGAGCCAGCCUGG | 0.258
CUGAGUGUCCUCUCUUAACAUCCAAGCCUUUUAAUGAAAUCGUACUGAAAUCUGUAUCAGCUAAGAGUCCUCCAAUCCUGGUCCCAUUAACUCCAAGUGCCUUUUUGACA | 0.519
UAAAUCUAAAAUGAAUGACUUUCAAAAAUGGGUUGGUUACCAUGGCAACCUCCAGGAAGAGAUACUCGUUACCCUUCAUUAUUUUCUAGCACUUUUGAACAGUCCCACAG | 0.246
CUAGCCUUUUCUACACCCUCUUUUGAGUGUAGUUUGAUAUUUUGUAAUCAAAAGCUCAUUUCACAAGCAGAAAAAGGCGACAAGUUAAUUAAAGCAAGGAAAAGUGUCAC | 0.283
CUGCGGGCUCUCUCCCCGACACAUUUGUUAAAAUCAAACCUGAAUAAAACUACAAGUUUAAUAUGAAGCCCCCAACUCAGCUGCUUAUUUGAAUUAAAUGGGUGUAUUUG | 0.766
CAGGAAGACCAAGGCCUCGGCAGAACUCUCUGUCUUCUCUCCACUUCUGGUCCCCUGUGGUGAUGUGCCUGUAAUCUUUUUCUCCACCCAAACCCCUUCCCACGACAAAA | 3.78
UGAAGAUGGUUUAAGUUAUAGCUUCUUAAACGAAAGAAUAAAAUACUGCAAAAUGUUUUUAUAUUUGGCCCUUCCACCCAUUUUUAAUUGUGAGAGAUUUGUCACCAAUC | 0.632
